Published values from different studies.
A part holds a random share of what one study measured.

Study 1
Target: PABPC1L2, full length, GST fusion (mouse, UniProt A0ABA7IW68)
Technique: RNAcompete
Molecule type: RNA
Medium: in vitro
Tested at: 20 nM
Notes: 7-mer, probes averaged, single round
Relative to: mean of 7-mers
Reading: higher = stronger binding
Residues (chain): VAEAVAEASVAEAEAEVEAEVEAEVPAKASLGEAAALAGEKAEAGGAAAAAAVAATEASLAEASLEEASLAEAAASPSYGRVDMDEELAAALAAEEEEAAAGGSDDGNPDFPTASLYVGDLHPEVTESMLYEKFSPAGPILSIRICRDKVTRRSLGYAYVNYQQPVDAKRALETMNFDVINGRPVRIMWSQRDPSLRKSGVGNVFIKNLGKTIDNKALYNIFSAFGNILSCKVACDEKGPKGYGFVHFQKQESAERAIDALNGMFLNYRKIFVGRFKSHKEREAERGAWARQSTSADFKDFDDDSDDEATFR
For `AUUACAA`, the 7-mer Z-score was 0.292.
For `UGGAAUC`, the 7-mer Z-score was -0.021.
`GCGUUUU` has a 7-mer Z-score of -0.255.
The 7-mer Z-score of `GGACUUG` is reported as -0.0573.
For `AGCGCCU`, the 7-mer Z-score was -0.0156.
With `AGCAAAC` the 7-mer Z-score was 0.468.
`GCAGUUU` gave a 7-mer Z-score of -0.199.
`CUCCAGC` has a 7-mer Z-score of -0.291.
The 7-mer Z-score of `GACCGAC` is reported as 0.0424.
For `CAACCUC`, the 7-mer Z-score was -0.246.
`GAAUUGC` gave a 7-mer Z-score of -0.186.
With `CUUUCAG` the 7-mer Z-score was -0.376.
`CCCUGGA` gave a 7-mer Z-score of -0.211.
`CGGCUAC` gave a 7-mer Z-score of -0.153.
`UCUACGA` has a 7-mer Z-score of -0.106.
With `AAACGUG` the 7-mer Z-score was 0.611.
For `UUUAUAG`, the 7-mer Z-score was 0.191.
`AGAUCCU` gave a 7-mer Z-score of -0.316.
With `UCAACGA` the 7-mer Z-score was -0.233.
The 7-mer Z-score of `GAUUCCA` is reported as -0.0301.
For `AUAUCUG`, the 7-mer Z-score was -0.164.
With `CUGGAAC` the 7-mer Z-score was -0.0246.
The 7-mer Z-score of `AGGUGCU` is reported as 0.273.
`CCUGGUA` gave a 7-mer Z-score of -0.197.
The 7-mer Z-score of `UGGUUAG` is reported as -0.0627.

Study 2
Target: Ras GTPase-activating protein-binding protein 1, RRM domain (G3BP1, Homo sapiens, UniProt Q13283)
UniProt Q13283, sequence (whole entry, looked up): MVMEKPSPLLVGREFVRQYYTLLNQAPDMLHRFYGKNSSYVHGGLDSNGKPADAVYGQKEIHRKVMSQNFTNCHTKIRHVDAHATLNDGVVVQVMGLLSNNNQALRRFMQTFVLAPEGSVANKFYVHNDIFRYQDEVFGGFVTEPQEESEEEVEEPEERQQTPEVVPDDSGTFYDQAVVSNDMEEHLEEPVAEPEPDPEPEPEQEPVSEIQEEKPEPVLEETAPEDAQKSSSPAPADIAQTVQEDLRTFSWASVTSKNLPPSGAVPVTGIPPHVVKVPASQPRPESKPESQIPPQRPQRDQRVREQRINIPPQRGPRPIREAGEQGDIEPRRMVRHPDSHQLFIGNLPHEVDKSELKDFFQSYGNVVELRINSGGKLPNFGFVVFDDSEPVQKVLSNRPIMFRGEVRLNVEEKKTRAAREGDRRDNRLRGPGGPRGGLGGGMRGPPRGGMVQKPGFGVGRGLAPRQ
Technique: RNA Bind-n-Seq
Molecule type: RNA
Medium: in vitro
Tested at: 1 µM
Notes: whole 134-nt RNA, ends assumed
With: 150 mM KCl
Relative to: input library
Reading: higher = stronger binding
`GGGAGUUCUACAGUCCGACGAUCGCAGGAAGUAAAAACAAAUGGAAAUGCUUCGGAUAGUGGCAGGGGUGGGGGUUGGUAAGGAAAGGGUGGGAUGGGAGUGGGUAAAGAGUUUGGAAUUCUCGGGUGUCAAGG` gave a log2 enrichment of 2.27.
For `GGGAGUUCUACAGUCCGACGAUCUGGGAGGUGGAUUUUGUUUAUUUUUUUAGCUCAUUUCCAGGGGUGGGAAUUUUUUUUUAAUAUGUGCCAUGAAUAAAGUUGUUUUUGAAAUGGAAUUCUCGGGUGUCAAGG`, the log2 enrichment was 2.
`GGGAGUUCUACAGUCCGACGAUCAGUCCUGUGCUACACAUCGUAUGUACCGAAUCGGUUUGGUUUUUUUGGUUUUUUUGGAAAGUAUUAUGUUACGCCGUUCGGAUCUGCACUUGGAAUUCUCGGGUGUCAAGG` has a log2 enrichment of -0.215.
For `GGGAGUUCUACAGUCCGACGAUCAAGUCCUGUGCUACACAUCGUAUGUACCGAAUCGGUUUUGGUUUUGGGGUUUUGGGAAAGUAUUAUGUUACGCCGUUCGGAUCUGCACUUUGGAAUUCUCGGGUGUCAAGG`, the log2 enrichment was -0.265.
`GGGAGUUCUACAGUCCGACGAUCUUUUUUGUAGUAGGGAGAUCCUUGAUCAUCAGGAUGGUAAUGUAGAAGAUGAUGGGCUUACAGGACUCCUAAGGCUUGCAACAAGUGUUGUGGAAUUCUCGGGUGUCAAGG` gave a log2 enrichment of -0.0497.
For `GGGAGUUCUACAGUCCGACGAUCGUCCUGUGCUACACAUCGUAUGUACCGAAUCGGGGUUUUUUUGGGGUUUGGGGUGGGGAAAGUAUUAUGUUACGCCGUUCGGAUCUGCACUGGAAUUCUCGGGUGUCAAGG`, the log2 enrichment was 0.735.
With `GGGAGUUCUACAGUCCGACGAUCGCAGGAAGUAAAAACAAAUGGAAAUGCUUCGGAUAGUGGCAGGGGUGGGGGUUGCUAAGGAAAGGGUGGGAUGGGAGUCGGUAAAGAGUUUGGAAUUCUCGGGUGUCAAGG` the log2 enrichment was 1.29.
With `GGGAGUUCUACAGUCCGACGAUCUAACUUUAGAGGAGGAUCUGAUGGAUAUGGCAGUGGACGUGGAUUUGGGGAUGGCUAUAAUGGGUAAGGAGGAGGACCUGGAGGUGGCAAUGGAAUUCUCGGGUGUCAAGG` the log2 enrichment was -0.315.
The log2 enrichment of `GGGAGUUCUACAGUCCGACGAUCCCUCAAGUCCUGUGCUACACAUCGUAUGUACCGAAUCGGAAGGGAAGGAAGGGAAAGUAUUAUGUUACGCCGUUCGGAUCUGCACUUCCAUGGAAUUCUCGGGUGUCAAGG` is reported as -0.337.

Study 3
Target: RNA binding protein fox-1 homolog 2, RRM domain, GST-SBP tag (RBFOX2, Homo sapiens, UniProt O43251-10, residues 100-194)
Technique: RNA Bind-n-Seq
Molecule type: RNA
Medium: in vitro
Tested at: 365 nM
Notes: natural RNA segment, single round, ends assumed
Relative to: no-protein control
Reading: higher = stronger binding
Construct (chain): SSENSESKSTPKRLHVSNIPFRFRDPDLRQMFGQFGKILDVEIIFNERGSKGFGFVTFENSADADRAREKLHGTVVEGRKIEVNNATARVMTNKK
`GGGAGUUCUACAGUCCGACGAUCGAGAGAUCUCAAGACAUUUUAAUAACAGCUUGAGCCCUCUUCUCCUCUGUAGGAACUUAGGUUAAUAGUAAUAUUAACAACAAGACAUGCUAAGACUCUUUGGUAAUCUAUGGAAUUCUCGGGUGCCAA`: “RBNS enrichment (R)” 0.397.
Under “RBNS enrichment (R)”, `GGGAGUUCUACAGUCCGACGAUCGUUUGCCUCUGCUGACUCCUGGCAUCACCUCCUGGGACACUUGCUGUCUUUUUUACUUGUCUCAUUUUCUUUCACAGCACUGAGGUCUCACCAAAUUUUCUAAUUUUUAUUGGAAUUCUCGGGUGCCAA` is recorded as 0.556.
For `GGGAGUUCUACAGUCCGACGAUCUUGUCCAGUAAUAAAAUAUAGAACCUUUCAAAAUGCUUUUCUGGUUUAUAAAGUACUGAAUUGCCCUAUAAGACCCGAUAAGGCUUCUUCUGUGGGGUAAAAUAUUGUUUUGGAAUUCUCGGGUGCCAA`, “RBNS enrichment (R)” read 0.514.
Under “RBNS enrichment (R)”, `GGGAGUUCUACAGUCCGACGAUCUCCUCUUUCCUCCAUUCAUCAUCAAGGUAGGCUGUGUUUGUCGGUGUGCCUCCCCUGCCCUCGGCCCCUAGCUGAUUUCUCCCCUAGAUAUGGUGCACUGUUUCCCUGGGUGGAAUUCUCGGGUGCCAA` is recorded as 0.747.
For `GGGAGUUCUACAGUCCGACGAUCUGCCUGCAAAGAAAUCUAUUUAACUGAAUCAGCCCAUAAUAUUUGAGGCACGAGGUUACUGUGAUUGAUAGGAAAGAUAAAAAUGAUGUCUGUUUUUGUAGACGAAUAACUGGAAUUCUCGGGUGCCAA`, “RBNS enrichment (R)” read 0.339.
Under “RBNS enrichment (R)”, `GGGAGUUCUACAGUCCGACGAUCCUCGCGGAGCUUGAGUUCUUCAUGGUAGAAAACAGUUGCAUUUCCGUAAAGGGUGGAGGGCUUGAGGCUUAAAUAUAUGAGUAUGUUUAUACUGCUCUACUGCACUUAGAUGGAAUUCUCGGGUGCCAA` is recorded as 0.742.
`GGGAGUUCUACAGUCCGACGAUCACCCCCUGCCUCACAUGGGGAGCACUGUUCAGAGCACACACUGGGGAGUUCUGACUUUGGCCAUUAGAGUGAGUCACAUCCCAGACCUACCAGAGAGCAGAAUGCUUGUGUGGAAUUCUCGGGUGCCAA`: “RBNS enrichment (R)” 0.477.
For `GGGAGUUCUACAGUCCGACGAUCAGAGAUUGGGCUUCAGCCUUCAGCAGGUGGUUCUCUCCCAUGCCUGGCCUUGGUGUGGAGGGGCUGUACUCUGAGCCCAAGUGAGUCAGCUAUAGGAAGAGGCCAUACCUUGGAAUUCUCGGGUGCCAA`, “RBNS enrichment (R)” read 0.31.

Study 4
Target: Prothrombin, mature alpha-thrombin (F2, Homo sapiens, UniProt P00734)
Technique: aptamer microarray, sandwich
Molecule type: DNA with 2'F-ANA
Medium: in vitro
Tested at: 200 nM
Notes: whole 15-mer aptamer, many near background
With: Cy3 exosite-II aptamer, 400 nM
Reading: higher = stronger binding
Oligonucleotide: GGTTGGTGTGGTTGG
For `2'F-ANA at 3 4 6 8 9 11 12`, “mean fluorescence intensity” read 652 a.u.
For `2'F-ANA at 2 3 4 14`, “mean fluorescence intensity” read 363 a.u.
For `2'F-ANA at 6 7 8 9 11 12 13 14 15`, “mean fluorescence intensity” read 183 a.u.
Under “mean fluorescence intensity”, `2'F-ANA at 1 3 4 5 7 8 9 10 12 15` is recorded as 52.9 a.u.
`2'F-ANA at 1 3 5 6 7 8 12 13 14` — result for “mean fluorescence intensity”: 54.8 a.u.
`2'F-ANA at 1 2 9 10 12 14 15`: “mean fluorescence intensity” 48.2 a.u.
For `2'F-ANA at 1 2 3 4 6 7 8 9 12 13`, “mean fluorescence intensity” read 227 a.u.
For `2'F-ANA at 3 4 5 6 7 8 9 10`, “mean fluorescence intensity” read 55.5 a.u.
`2'F-ANA at 1 7 9 10 12 13 14 15` — result for “mean fluorescence intensity”: 69.2 a.u.
Under “mean fluorescence intensity”, `2'F-ANA at 5 6 10 13 14` is recorded as 42.2 a.u.
Under “mean fluorescence intensity”, `2'F-ANA at 2 3 4 7 8 9 10 11 14 15` is recorded as 168 a.u.
For `2'F-ANA at 3 4 7 9 11 14 15`, “mean fluorescence intensity” read 309 a.u.
Under “mean fluorescence intensity”, `2'F-ANA at 2 3 5 7 12 15` is recorded as 227 a.u.
Under “mean fluorescence intensity”, `2'F-ANA at 1 3 4 5 6 11 12 14 15` is recorded as 48 a.u.
For `2'F-ANA at 2 3 4 5 6 7 11 12 13 14`, “mean fluorescence intensity” read 50.9 a.u.
For `2'F-ANA at 2 3 8 13`, “mean fluorescence intensity” read 732 a.u.
Under “mean fluorescence intensity”, `2'F-ANA at 1 5 7 8 10 12 14` is recorded as 44.6 a.u.
`2'F-ANA at 1 2 4 5 8 12`: “mean fluorescence intensity” 121 a.u.
Under “mean fluorescence intensity”, `2'F-ANA at 5 6 8 10 11 12 14 15` is recorded as 47.3 a.u.
For `2'F-ANA at 1 2 4 7 11 14`, “mean fluorescence intensity” read 50.1 a.u.
`2'F-ANA at 2 4 5 8 11`: “mean fluorescence intensity” 60.9 a.u.
Under “mean fluorescence intensity”, `2'F-ANA at 3 5 6 7 11 14` is recorded as 57.8 a.u.
Under “mean fluorescence intensity”, `2'F-ANA at 1 2 6 8 9 11` is recorded as 124 a.u.
